Experimental data from different studies.
Method: steady-state kinetics
B1: CHST10 (Homo sapiens, UniProt O43529); chain TFKDPDVYSAKQEFLFLTTMPEVRKLPEEKHIPEELKPTGKELPDSQLVQPLVYMERLELIRNVCRDDALKNLSHTPVSKFVLDRIFVCDKHKILFCQTPKVGNTQWKKVLIVLNGAFSSIEEIPENVVHDHEKNGLPRLSSFSDAEIQKRLKTYFKFFIVRDPFERLISAFKDKFVHNPRFEPWYRHEIAPGIIRKYRRNRTETRGIQFEDFVRYLGDPNHRWLDLQFGDHIIHWVTYVELCAPCEIMYSVIGHHETLEDDAPYILKEAGIDHLVSYPTIPPGITVYNRTKVEHYFLGISKRDIRRLYARFEGDFKLFGYQKPDFLLN
B2: protein F432L (Streptomyces toyocaensis, UniProt Q8KLK7); chain MTTVLPPLEDTDGLWAALTEAAASVEKLLATLPEHGARSSAERAEIAAAHDAARALRVRFLDTHADAVYDRLTDHRRVHLRLAELVEAAATAFPGLVPTQQQLAVERSLPQAAKEGHEIDQGIFLRAVLRSPLAGPHLLDAMLRPTPRALELLPEFVRTGEVEMEAVHLERRDGVARLTMCRDDRLNAEDGQQVDDMETAVDLALLDPGVRVGLLRGGVMSHPRYRGKRVFSAGINLKYLSQGGISLVDFLMRRELGYIHKLVRGVLTNDDRPGWWHSPRIEKPWVAAVDGFAIGGGAQLLLVFDRVLASSDAYFSLPAAKEGIIPGAANLRLGRFAGPRVSRQVILEGRRIWAKEPEARLLVDEVVEPDELDAAIERSLTRLDGDAVLANRRMLNLADESPDGFRAYMAEFALMQALRLYGHDVIDKVGRLGGRPPA
B3: enzyme H376N (Acetivibrio thermocellus, UniProt A3DJ38); chain MKLTIPELSLVVLIGSSGSGKSTFAKKHFKPTEVISSDFCRGLVSDDENDQTVTGAAFDVLHYIVSKRLQLGKLTVVDATNVQESARKPLIEIAKDYHCFPVAVVFNLPEKVCQERNKNRTDRQVEEYVIRKHTQQLKKSIKGLQREGFRYVYILNSPEEVEEVVFERQPLWNNKKDEHGPFDIIGDIHGCYDELKMLLEKLGYLIEEVEGGVGSGKYRVTHPEGRKVLFLGDLVDRGPKITEVLKLVMGMVKSGIALCVPGNHDVKLLRKLNGRDVQITHGLDRTLEQLAKEPQEFIEEVKAFIDGLVSHYVLDDGKLVVAHAGMKEEFQGRGSGKVREFALYGETTGETDEYGLPVRYDWASDYRGKALVVYGNTPQAEVLKVNNTINIDTGCVFGGKLTAYRYPEREIVDVKALKTYYEPAKPFLPKEDMAERFEARTDNDILDINDVLGKKIITTRLMSSITIHEENSIAALEVMSRFAADPHWLIYLPPTMSPCETSKKEGMLEHPIEAFEYFRTRGVGKVVCEQKHMGSRAVVIVCKDSQVAEKRFGVLDGTAGICYTRTGRHFFDDMQLEAELIDRVRKVLDKSGFWGDFNTDWVCLDCELMPWSAKAQKLLEEQYSAVGISGRVVLDEAVKLLKQASLNKTVSFDVSRQTSGKNADINELLQRFTERSEMMQKYVEAYRKYCWPVNSIDDLKLAPFHILATEGKVHSDKNHIWHMDTIAKYCTQDDSLIMATNHILVDVTDAESVDKGIKWWEDLTASGGEGMVVKPYDFIVKNGRELLQPAVKCRGREYLRIIYGPEYTMDENIERLRNRAVGKKRSLALREFSLGMEALERFVRNEPLYRVHECVFGVLALESEPVDPRL
B4: enzyme R237K (Acetivibrio thermocellus, UniProt A3DJ38); chain MKLTIPELSLVVLIGSSGSGKSTFAKKHFKPTEVISSDFCRGLVSDDENDQTVTGAAFDVLHYIVSKRLQLGKLTVVDATNVQESARKPLIEIAKDYHCFPVAVVFNLPEKVCQERNKNRTDRQVEEYVIRKHTQQLKKSIKGLQREGFRYVYILNSPEEVEEVVFERQPLWNNKKDEHGPFDIIGDIHGCYDELKMLLEKLGYLIEEVEGGVGSGKYRVTHPEGRKVLFLGDLVDKGPKITEVLKLVMGMVKSGIALCVPGNHDVKLLRKLNGRDVQITHGLDRTLEQLAKEPQEFIEEVKAFIDGLVSHYVLDDGKLVVAHAGMKEEFQGRGSGKVREFALYGETTGETDEYGLPVRYDWASDYRGKALVVYGHTPQAEVLKVNNTINIDTGCVFGGKLTAYRYPEREIVDVKALKTYYEPAKPFLPKEDMAERFEARTDNDILDINDVLGKKIITTRLMSSITIHEENSIAALEVMSRFAADPHWLIYLPPTMSPCETSKKEGMLEHPIEAFEYFRTRGVGKVVCEQKHMGSRAVVIVCKDSQVAEKRFGVLDGTAGICYTRTGRHFFDDMQLEAELIDRVRKVLDKSGFWGDFNTDWVCLDCELMPWSAKAQKLLEEQYSAVGISGRVVLDEAVKLLKQASLNKTVSFDVSRQTSGKNADINELLQRFTERSEMMQKYVEAYRKYCWPVNSIDDLKLAPFHILATEGKVHSDKNHIWHMDTIAKYCTQDDSLIMATNHILVDVTDAESVDKGIKWWEDLTASGGEGMVVKPYDFIVKNGRELLQPAVKCRGREYLRIIYGPEYTMDENIERLRNRAVGKKRSLALREFSLGMEALERFVRNEPLYRVHECVFGVLALESEPVDPRL
B5: Lxyl-p1-1 A72T/V91S (Lentinula edodes, UniProt G8GLN9); chain YFSGLGLGSERSIFRRDLNSTGDESNSTQWPAPLANGGKSWASAFKKAKSTVTEMTVEELANITSGVIGLCSGVTGAVTRLGIPELCLQDGPIGPRGVHGSSQFPAGLTVAATWDRTLMYARARGMGQEFHDQGVHIALAPVTGGPLGRTPLNGRGWEGTFADPYACGEASYQSVKGLTDAGVATVSKHWIAYEQETSRNLYIEFDGVSQADIQLPISSNVDDLTMHELYMWSFAEAVRAGTNHIMCSYNRINNTHSCNNAKGLNQLLKTELNFQGGVVSDWGGQWDSVLSAENGLDVGMPGEGFLGELGDFWGTTLADLINNGTVSEDLVRDKVVRLLTGYYYLGQDINPPPPFVYNTIGAPTLNATSGYRNVRKPGTAELIKEIGSASVTLLKNTGSLPLKHPQRIAVLGNDATYNVLGPNACGLANSACDIDNLNGTLTTGGGSGSALSPYTITPLEALQKRAIEDNAEIAAVVANSNTTTGAEDAIAALLPDADVTFVFLNRYSEEGADAPDFSLGGDGDNLMDLAVTYSSNVVVVIHTTGVVDIEKWADNPNVTAILVAYLPGQEAGNSLVPVLYGDVAPSGKLPWTWGKSIDDYVPNGVVYTDAYSPQSNFTEGVFIDYRWFDKMGITPRYEFGFGLSYTTFTYSNLIVDHGRWAKDYSSVMETAEPFAEWDGTNSLYDVIFTVFATITNTGNLTGSEVAQLYISIPGDNQPVRQLRGFDKIKDLPVGDSAVVTFPIRRKDVSSWSVVDQLWYVPNGDFLISVGGSSRDLPLNTTWTP
B6: nitrilase Y142A (Rhodococcus rhodochrous, UniProt A4LA85); chain MVEYTNTFKVAAVQAQPVWFDAAKTVDKTVSIIAEAARNGCELVAFPEVFIPGYPYHIWVDSPLAGMAKFAVRYHENSLTMDSPHVQRLLDAARDHNIAVVVGISERDGGSLYMTQLIIDADGQLVARRRKLKPTHVERSVAGEGNGSDISVYDMPFARLGALNCWEHFQTLTKYAMYSMHEQVHVASWPGMSLYQPEVPAFGVDAQLTATRMYALEGQTFVVCTTQVVTPEAHEFFCENEEQRKLIGRGGGFARIIGPDGRDLATPLAEDEEGILYADIDLSAITLAKQAADPVGHYSRPDVLSLNFNQRRTTPVNTPLSTIHATHTFVPQFGALDGVRELNGADEQRALPSTHSDETDRATASI
B7: enzyme E217L/L163H/N249W (Thermobifida fusca, UniProt Q47RK4); chain MTDVYILDAVRTPFGRYGGALSGIRPDDLAAHVLRALAERSPGLDPAAVDDVFFGDANGAGEDNRNVARMAALLAGWPTSVPGVTLNRLCGSGMESVIAANRAIAVGDASLAVAGGVESMSRAPWVLPKPAQGFPTGHETLYSTTLGWRMVNPAMPEQWTVSHGESTEQVAATYGISRAEQDAFALRSHERAARAWAEGVFDAEITQIPGAELERDLSIRETSAEKLAALKPAFRPDGTITAGNASPLWDGAAALLIGDAAAAERVGREPLARIVSRGVAAVDPDVFGIGPVQAAEIALRRAGIGWDDLSVVELNEAFAAQSLACLKLWPDLDPEIVNPNGGAIAIGHPLGASGARIVGTLAHELHRRGGGWGLAAICIGVGQGLAVVLHR
B8: enzyme N1029G (Limosilactobacillus reuteri, UniProt Q5SBN3); chain INGQQYYIDPTTGQPRKNFLLQNGNDWIYFDKDTGAGTNALKLQFDKGTISADEQYRRGNEAYSYDDKSIENVNGYLTADTWYRPKQILKDGTTWTDSKETDMRPILMVWWPNTVTQAYYLNYMKQYGNLLPASLPSFSTDADSAELNHYSELVQQNIEKRISETGSTDWLRTLMHEFVTKNSMWNKDSENVDYGGLQLQGGFLKYVNSDLTKYANSDWRLMNRTATNIDGKNYGGAEFLLANDIDNSNPVVQAEELNWLYYLMNFGTITGNNPEANFDGIRVDAVDGVDVDLLSIARDYFNAAYNMEQSDASANKHINILEDWGWDDPAYVNKIGNPQLTMDDRLRNAIMDTLSGAPDKNQALNKLITQSLVNRANDNTENAVIPSYNFVRAHDSNAQDQIRQAIQAATGKPYGEFNLDDEKKGMEAYINDQNSTNKKWNLYNMPSAYTILLTNKDSVPRVYYGDLYQDGGQYMEHKTRYFDTITNLLKTRVKYVAGGQTMSVDKNGILTNVRFGKGAMNATDTGTDETRTEGIGVVISNNTNLKLNDGESVVLHMGAAHKNQKYRAVILTTEDGVKNYTNDTDAPVAYTDANGDLHFTNTNLDGQQYTAVRGYANPDVTGYLAVWVPAGAADDQDARTAPSDEAHTTKTAYRSNAALDSNVIYEGFSNFIYWPTTESERTNVRIAQNADLFKSWGITTFELAPQYNSSKDGTFLDSIIDNGYAFTDRYDLGMSTPNKYGSDEDLRNALQALHKAGLQAIADWVPDQIYNLPGKEAVTVTRSDDHGTTWEVSPIKNVVYITNTIGGGEYQKKYGGEFLDTLQKEYPQLFSQVYPVTQTTIDPSVKIKEWSAKYFNGTNILHRGAGYVLRSNDGKYYNLGTSTQQFLPSQLSVQDNEGYGFVKEGNNYHYYDENKQMVKDAFIQDSVGNWYYFDKNGNMVANQSPVEISSNGASGTYLFLNNGTSFRSGLVKTDAGTYYYDGDGRMVRNQTVSDGAMTYVLDENGKLVSESFDSSATEAHPLKPGDLNGQK

Molecule	substrate	pH	temperature	together with	Km
B1 (CHST10)	[H][C@@]12CC=C3C[C@@H](O[C@@H]4O[C@H](C(=O)O)[C@@H](O)[C@H](O)[C@H]4O)CC[C@]3(C)[C@@]1([H])CC[C@]1(C)C(=O)CC[C@@]21[H]	pH 7.2	37 °C		210 µM
B2 (protein F432L)	CC(C)(COP(=O)(O)OP(=O)(O)OC[C@H]1O[C@@H](n2cnc3c(N)ncnc32)[C@H](O)[C@@H]1OP(=O)(O)O)[C@@H](O)C(=O)NCCC(=O)NCCSC(=O)Cc1cc(O)cc(O)c1	pH 7.5	24 °C	O2	0.5 µM
plcB (Listeria monocytogenes, UniProt P33378)	CCCCCCC(=O)OC[C@H](COP(=O)([O-])OCC[N+](C)(C)C)OC(=O)CCCCCC	pH 6	37 °C		200 µM
B3 (enzyme H376N)	Nc1ncnc2c1ncn2[C@@H]1O[C@H](CO)[C@H]2OP(=O)(O)O[C@H]21	pH 7.5	45 °C		4700 µM
OXA-48 (Klebsiella pneumoniae, UniProt Q6XEC0)	C[C@@H](O)[C@H]1C(=O)N2C(C(=O)O)=C(SCCN=CN)C[C@H]12	pH 7.2	30 °C		3.7 µM
B4 (enzyme R237K)	Nc1ncnc2c1ncn2[C@@H]1O[C@H](CO)[C@H]2OP(=O)(O)O[C@H]21	pH 7.5	45 °C		100000 µM
B5 (Lxyl-p1-1 A72T/V91S)	[H][C@]12[C@H](OC(=O)c3ccccc3)[C@]3(O)C[C@H](OC(=O)[C@H](O)[C@@H](NC(=O)c4ccccc4)c4ccccc4)C(C)=C([C@@H](O)C(=O)[C@]1(C)[C@@H](O[C@@H]1OC[C@@H](O)[C@H](O)[C@H]1O)C[C@@]1([H])OC[C@@]21OC(C)=O)C3(C)C				300 µM
dmhA (Campylobacter jejuni, UniProt Q5M6Q7)	Nc1nc2c(ncn2[C@@H]2O[C@H](COP(=O)(O)OP(=O)(O)O[C@H]3O[C@H]([C@H](O)CO)[C@@H](O)[C@H](O)[C@@H]3O)[C@@H](O)[C@H]2O)c(=O)[nH]1	pH 7.5	30 °C		61 µM
B6 (nitrilase Y142A)	N#Cc1ccccn1	pH 7.5	25 °C		819 µM
B7 (enzyme E217L/L163H/N249W)	CC(C)(COP(=O)(O)OP(=O)(O)OC[C@H]1O[C@@H](n2cnc3c(N)ncnc32)[C@H](O)[C@@H]1OP(=O)(O)O)[C@@H](O)C(=O)NCCC(=O)NCCSC(=O)CC(=O)O	pH 7.4	37 °C		2570 µM
B8 (enzyme N1029G)	OC[C@H]1O[C@@](CO)(O[C@H]2O[C@H](CO)[C@@H](O)[C@H](O)[C@H]2O)[C@@H](O)[C@@H]1O	pH 4.7	37 °C		2700 µM
aacA-aphD (Staphylococcus aureus, UniProt P0A0C1)	NCC[C@H](O)C(=O)N[C@@H]1C[C@H](N)[C@@H](O[C@H]2O[C@H](CN)[C@@H](O)[C@H](O)[C@H]2O)[C@H](O)[C@H]1O[C@H]1O[C@H](CO)[C@@H](O)[C@H](N)[C@H]1O	pH 7.5	25 °C		25 µM

Repeated from above:
Molecule	substrate	pH	temperature	together with	Km
B7 (enzyme E217L/L163H/N249W)	CC(C)(COP(=O)(O)OP(=O)(O)OC[C@H]1O[C@@H](n2cnc3c(N)ncnc32)[C@H](O)[C@@H]1OP(=O)(O)O)[C@@H](O)C(=O)NCCC(=O)NCCSC(=O)CC(=O)O	pH 7.4	37 °C		2570 µM
B8 (enzyme N1029G)	OC[C@H]1O[C@@](CO)(O[C@H]2O[C@H](CO)[C@@H](O)[C@H](O)[C@H]2O)[C@@H](O)[C@@H]1O	pH 4.7	37 °C		2700 µM
